Experimental data collected from several papers.
Compare with care: the assays were run in different laboratories. Several values in a cell are separate wells, animals, samples, runs or records. ± gives the spread as reported.
Target: Cytochrome P450 2C9 (CYP2C9, Homo sapiens, UniProt P11712)
Sequence of UniProt P11712 (whole entry, looked up): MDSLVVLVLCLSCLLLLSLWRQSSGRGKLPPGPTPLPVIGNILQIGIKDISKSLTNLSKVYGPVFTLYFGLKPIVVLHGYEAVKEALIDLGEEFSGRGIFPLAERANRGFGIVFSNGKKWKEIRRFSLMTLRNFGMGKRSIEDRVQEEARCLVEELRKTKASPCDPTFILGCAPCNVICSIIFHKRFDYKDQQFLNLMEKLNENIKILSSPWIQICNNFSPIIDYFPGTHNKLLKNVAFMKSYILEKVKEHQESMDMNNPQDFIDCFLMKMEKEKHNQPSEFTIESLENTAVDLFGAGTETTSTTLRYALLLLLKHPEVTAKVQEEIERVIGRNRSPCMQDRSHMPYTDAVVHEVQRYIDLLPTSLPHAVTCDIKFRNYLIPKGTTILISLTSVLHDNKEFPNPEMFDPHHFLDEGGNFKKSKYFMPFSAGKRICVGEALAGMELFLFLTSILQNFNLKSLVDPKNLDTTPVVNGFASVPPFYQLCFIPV

Structure (SMILES) = N#Cc1cc(NC(=O)C2c3ccccc3C(=O)N(CC(F)(F)F)C2c2cccnc2)ccc1F (racemic); test = enzyme activity, inhibitor; system = liver microsomes; conditions = 10 µM; measurement = inhibition; result = 25%
Structure (SMILES) = O=C(CN1CN(c2ccccc2)C2(CCN(C(=O)c3ccc4[nH]ncc4n3)CC2)C1=O)NCC(F)(F)F; test = enzyme activity, inhibitor; measurement = IC50; result = 11 µM
Structure (SMILES) = C=CC(=O)Nc1cc(Nc2nccc(-c3cn(C)c4ccccc34)n2)c(OCC(F)(F)F)nc1N(C)CCN(C)C; test = substrate; conditions = 3 µM, 60 min, 2C9 isoform, liver abundance-normalized; measurement = contribution to substrate depletion; result = 7.92%
Structure (SMILES) = O=C(CN1CN(c2cccc(F)c2)C2(CCN(C(=O)c3cnc4[nH]ncc4c3)CC2)C1=O)NCC(F)(F)F; test = enzyme activity, inhibitor; measurement = IC50; result = 17 µM
Structure (SMILES) = COC1C(c2ccc(Cl)c(Cc3ccc(OC4CCOC4)cc3)c2)OC(CO)C(O)C1O (stereo not shown); test = enzyme activity, inhibitor; system = human, liver microsomes; conditions = 10 µM, 10 min; measurement = inhibition; result = 16.8%
Structure (SMILES) = CNC(=O)C1CCCN(C(=O)C2CC3CCC2N3C(=O)[C@@H]2C[C@@H](O)CN2C(=O)NCc2cccc(Cl)c2F)C1 (mixture of isomers); test = preincubation without NADPH; system = human; conditions = 0.617 µM; scale = reference: negative control; measurement = remaining activity; result = 93.7% and 98.1% and 98.2%
Structure (SMILES) = Cc1nc2ccc(S(=O)(=O)n3nc(SCc4ccc(Cl)cc4)nc3N)cc2s1; test = enzyme activity, inhibitor; system = human, liver microsomes; conditions = 10 µM; measurement = inhibition; result = 88%
Structure (SMILES) = O=C(CN1CN(c2ccccc2)C2(CCN(C(=O)c3ccc4[nH]ncc4c3)CC2)C1=O)N(CCO)CC(F)(F)F; test = enzyme activity, inhibitor; measurement = IC50; result = 1.1 µM
Structure (SMILES) = Nc1nc(SCc2ccc(Cl)cc2)nn1S(=O)(=O)c1ccc2c(c1)CCO2; test = enzyme activity, inhibitor; system = human, liver microsomes; conditions = 10 µM; measurement = inhibition; result = 82%
Structure (SMILES) = COc1ccc2c(c1)C(C)(C)C1=C(Cl)C(=O)C(Cl)=CC1=N2; test = O-demethylation, substrate; conditions = pH 7.4, 37 °C; measurement = Vmax; result = 1.31 ± 0.04 nmol/min/nmol P450
Structure (SMILES) = O=C(NS(=O)(=O)c1cccs1)c1cc2ccccc2n1Cc1ccc(Br)c2ccccc12; test = inhibitor; measurement = IC50; result = 2.77 µM
Structure (SMILES) = O=C(CN1CN(c2ccccc2)C2(CCN(C(=O)c3ccc4[nH]ncc4c3)CC2)C1=O)Nc1ccccn1; test = enzyme activity, inhibitor; measurement = IC50; result = > 50 µM
Structure (SMILES) = C=C(NC(=O)c1csc(-c2nc3c(cc2O)-c2nc(cs2)C(=O)NC(C(C)O)C(=O)NC(=C(C)OC)c2nc(cs2)C(=O)NC2c4nc(cs4)C(=O)NC(COC(=O)c4c5c6c(cccc6n4O)COC(=O)C(OC4CC(C)(O)C(N(C)C)C(C)O4)C2OC5)c2nc-3cs2)n1)C(N)=O (stereo not shown); test = enzyme activity, inhibitor, substrate cocktail; system = pooled human liver microsomes; conditions = up to 50 µM, pH 7.4; measurement = remaining activity; result = > 70%
